Measured values pooled from the literature.
Compare with care: the assays were run in different laboratories.
Cell line: K562

C[C@H]1CN(c2ccc(Cl)c(Cl)c2)N=C1NC(=O)c1cnc(NCCOCCOCCNc2ncc(C(=O)NC3=NN(c4ccc(Cl)c(Cl)c4)C[C@@H]3C)cn2)nc1  EC50 (cell growth or viability, ATP luminescence; 72 h): 52 nM
COc1cc(O)ccc1-c1c[nH]c2ncc(-c3cncc(C(=O)N(C)C)c3)cc12  GI50 (cell growth or viability, MTT; 72 h): 142 nM
CN1CCC(N[C@H]2CCc3[nH]c4c(C(N)=O)ccc(-c5ccccc5Cl)c4c3C2)CC1  IC50 (cell growth or viability): 735 nM
Cc1[nH][n+]([Pd-2]([Cl])([Cl])[n+]2[nH]c(C)c(CSC3CCCCC3)c2C)c(C)c1CSC1CCCCC1  selectivity index (cytotoxicity; relative to: IC50 HEK293 over IC50 K562): 1.4
CCOc1cncc(-c2ccc(NC(=O)C3(c4ccnc(NS(=O)(=O)C5CC5)n4)CCOCC3)nc2)n1  IC50 (cell proliferation, CellTiter-Glo; 72 h): 43 nM
CCN(C(=O)c1cc(F)ccc1Oc1nncnc1N1CCC2(C1)CN([C@H](CCCN(C)CCOC)C(C)C)C2)C(C)C  GI50 (cell growth or viability; 72 h): > 10000 nM
N#Cc1c(N)nc2c(c1-c1ccc(CO)o1)Cc1c(O)cccc1-2  IC50 (cell viability, CellTiter-Glo; no inhibition at 100 µM): > 100000 nM
C=C(NC(=O)c1csc(-c2cccnc2)n1)C(=O)NC(=C)C(=O)OC  EC50 (cell growth or viability): 2900 nM
C=CC(=O)Nc1ccc(OC)c(-c2c[nH]c3ncc(-c4cncc(C(=O)N(C)C)c4)cc23)c1  GI50 (cell growth or viability, MTT; 72 h): > 1000 nM
COc1cc(/C=C/C(=O)/C=C(O)/C=C/c2ccc(OCC(=O)N3CCOCCOCCOCCOCCOCC3)c(OC)c2)ccc1OCC(=O)N1CCOCCOCCOCCOCCOCC1  inhibition (cell growth or viability, SRB; 25 µM): 91%
Cc1nc(NCCOCCNc2ncc(C(=O)NC3=NN(c4ccc(Cl)c(Cl)c4)CC3)c(C)n2)ncc1C(=O)NC1=NN(c2ccc(Cl)c(Cl)c2)CC1  EC50 (cell growth or viability, ATP luminescence; 72 h): 1600 nM
COc1cc(/C=C/C(=O)/C=C(O)/C=C/c2ccc(OCC(=O)N3CCOCCOCCOCCOCC3)c(OC)c2)ccc1OCC(=O)N1CCOCCOCCOCCOCC1  inhibition (cell growth or viability, SRB; 25 µM): 94.5%
N#Cc1c(N)nc2c(c1-c1cccs1)Cc1cc(O)ccc1-2  IC50 (cell viability, CellTiter-Glo; no inhibition at 100 µM): > 100000 nM
Cc1[nH][n+]([Pd-2]([Br])([Br])[n+]2[nH]c(C)c(CSCc3ccccc3)c2C)c(C)c1CSCc1ccccc1  selectivity index (cytotoxicity; relative to: IC50 HEK293 over IC50 K562): 1.4
CNS(=O)(=O)Nc1nccc(Cc2c(C)c3ccc(Oc4ncccc4F)cc3oc2=O)c1F  IC50 (cell viability; 7 days): 19.8 nM
NC(=O)c1ccc(-c2ccccc2Cl)c2c3c([nH]c12)CC[C@@H](N)C3  IC50 (cell growth or viability): 13.9 nM
C/C1=C\[C@H](C)C[C@H](C)OC(=O)C[C@H](c2ccc(O)cc2)NC(=O)[C@@H](Cc2ccc(O)cc2)N(C)C(=O)[C@H](C)NC(=O)[C@@H](C)C1  GI50 (cell growth or viability): > 50 µg/mL
C=CS(=O)(=O)Oc1ccc(OC)c(-c2c[nH]c3ncc(-c4cncc(C(=O)N(C)C)c4)cc23)c1  GI50 (cell growth or viability, MTT; 72 h): 532 nM
Cc1ccc(-c2c(C#N)c(N)nc3c2Cc2cc(O)ccc2-3)o1  IC50 (cell viability, CellTiter-Glo; no inhibition at 100 µM): > 100000 nM
CCCON(Cc1ccc(C(=O)NO)cc1)C(=O)Nc1cc(C)cc(C)c1  IC50 (cell growth or viability, ATP luminescence; 72 h): 1620 nM
Cc1[nH][n+]([Pd-2]([Br])([Br])[n+]2[nH]c(C)c(CSC3CCCCC3)c2C)c(C)c1CSC1CCCCC1  selectivity index (cytotoxicity; relative to: IC50 HEK293 over IC50 K562): 3.7
COC(=O)[C@H](C)NC(=O)[C@H](C)NC(=O)c1csc(-c2cccnc2)n1  EC50 (cell growth or viability): > 30000 nM
C/C1=C\CC[C@H](C)OC(=O)C[C@H](c2ccc(O)cc2)NC(=O)[C@@H](Cc2ccc(O)cc2)N(C)C(=O)[C@H](C)NC(=O)[C@@H](C)C1  GI50 (cell growth or viability): > 50 µg/mL
Cc1sc2c(c1C)C(c1ccc(Cl)cc1)=N[C@@H](CC(=O)NCCN(C)CCCCNC(=O)CCCCOc1cccc3c1C(=O)N([C@H]1CCC(=O)NC1=O)C3=O)c1nnc(C)n1-2  IC50 (cell growth or viability, CCK-8; 72 h): 390 nM
COc1ccc(O)cc1-c1c[nH]c2ncc(-c3cncc(C(=O)N(C)C)c3)cc12  GI50 (cell growth or viability, MTT; 72 h): 17 nM
CC(C)=CC1OC(C)(C)C2C=C3C(=O)C(Cl)=CC(O)C3C3C(O)C4OC4C(=O)C132 (centres unmarked)  IC50 (cell growth or viability, MTS): 3950 nM

Some of these lines once more:
NC(=O)c1ccc(-c2ccccc2Cl)c2c3c([nH]c12)CC[C@@H](N)C3  IC50 (cell growth or viability): 13.9 nM
C/C1=C\[C@H](C)C[C@H](C)OC(=O)C[C@H](c2ccc(O)cc2)NC(=O)[C@@H](Cc2ccc(O)cc2)N(C)C(=O)[C@H](C)NC(=O)[C@@H](C)C1  GI50 (cell growth or viability): > 50 µg/mL
C=CS(=O)(=O)Oc1ccc(OC)c(-c2c[nH]c3ncc(-c4cncc(C(=O)N(C)C)c4)cc23)c1  GI50 (cell growth or viability, MTT; 72 h): 532 nM
